Measured values gathered from unrelated publications.
Parts stem from different laboratories: compare values within a part only.

Study 1
Target: RING finger protein unkempt homolog, zinc fingers 1-6, GST-SBP tag (UNK, Homo sapiens, UniProt Q9C0B0, residues 30-357)
Method: RNA Bind-n-Seq
Form: RNA
Sample: in vitro
Tested at: not given
Setting: RNA with constant flanks, human-mouse chimeric sites, ends assumed
Reference: input RNA pool
Reading: higher = stronger binding
Residues (chain): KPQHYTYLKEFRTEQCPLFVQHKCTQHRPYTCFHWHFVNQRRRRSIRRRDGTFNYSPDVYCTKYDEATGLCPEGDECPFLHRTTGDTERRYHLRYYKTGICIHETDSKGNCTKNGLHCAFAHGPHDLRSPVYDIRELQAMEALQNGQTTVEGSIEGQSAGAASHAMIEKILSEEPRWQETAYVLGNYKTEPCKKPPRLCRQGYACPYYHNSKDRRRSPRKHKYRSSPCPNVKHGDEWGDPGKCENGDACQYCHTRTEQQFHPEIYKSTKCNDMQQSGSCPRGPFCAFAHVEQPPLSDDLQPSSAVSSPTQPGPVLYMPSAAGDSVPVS
The bound/input enrichment of `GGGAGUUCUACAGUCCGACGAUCGGGACUGAUUCAUUCCAAGGACAGGCCACCCCAUUUGAUGCCUGGACUGAUGACAGUAUGUUAGGGCCUAGUCAAAAUGUUGAAGCUGAGUCAAUUCAGGAUGCCAUGAGUAUGGAAGAGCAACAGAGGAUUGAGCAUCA` is reported as 0.522 ratio.
For `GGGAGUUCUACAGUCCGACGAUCUCUUUAAAAAAAAAAUUACCUUUUCUGACAGUGCUUUCCCUCCCAUAGGUCCAGGUUCAAGCUCAAAGAGCAAAGGCUUUGCACGGAGCUCAAACAUAAAAGAAAGAAAGAUUUCUGAGACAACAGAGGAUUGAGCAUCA`, the bound/input enrichment was 0.433 ratio.
The bound/input enrichment of `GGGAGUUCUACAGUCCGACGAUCUCUGGUCACACUCGUGUGUAUGGUGUUUGCUUUGUGGACACUUCACUGGGCAAGUUUUUCAUCGGCCAGUUUUCGGAUGAUCGCCAUUGUUCCAGAUUUAGGACUCUAGUGGCUCACUAUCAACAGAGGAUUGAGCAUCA` is reported as 0.132 ratio.
The bound/input enrichment of `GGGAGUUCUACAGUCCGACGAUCCAGGGCAUCAUCUCUCGUGCUGUUAGACACCUGUUCAAGAGUAUUGAUGAGAAAAAGCACAUAGCAAUUAAAAACGGGCUGCCCCCUCCAGAUUUUAAAGUGAAUGCCCAGUUCCUAGAGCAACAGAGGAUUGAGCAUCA` is reported as 2.1 ratio.
For `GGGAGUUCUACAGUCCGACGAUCAGAGAUAAGACAUCCAGGAACAUGCGAGGCUCCCGGAUGAAUGGGUUGCCUAGCCCCACUCAUAGUGCCCACUGUAGCUUCUACCGAACCAGAACCUUGCAGGCAUUGAGUAAUGAGAAGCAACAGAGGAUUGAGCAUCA`, the bound/input enrichment was 0.181 ratio.
`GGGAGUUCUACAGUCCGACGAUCAGAGCCCAGGAUGUUGAUGCUACAAAUCCAAAUUACGAAAUUAUGUGUAUGAUCAGAGACUUCAGAGGAAGUUUGGAUUAUAGACCACUAACAACAGCAGAUCCUAUUGAUGAACAUAGGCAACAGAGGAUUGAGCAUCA` gave a bound/input enrichment of 0.466 ratio.
`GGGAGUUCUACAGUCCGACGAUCUGACAAGGGCACUGCAGAGCCAUGCCUUUCCUUGACAUCCAGAAAAGGCUGGGCAUCAGCCUGGACCGGCACUUUAUAAUCCAGAGUGCAGAACAGCCCUAUAAGAACGCCGCUCGGUGCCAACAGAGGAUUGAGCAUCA` has a bound/input enrichment of 0.0697 ratio.
For `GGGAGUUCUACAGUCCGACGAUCCUGUGACCACAAGAUCCUACCUGAGUGGCAGCUGAAGUUGACUCCCUCCCCUUCCCUGAACCCCCCCCCACUGCCCCCCCAUCCCCCGCAGAAUUCCGAGAUGUUGCCUCUGCACGGUUCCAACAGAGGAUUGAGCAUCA`, the bound/input enrichment was 1.32 ratio.

Study 2
Target: Histone acetyltransferase KAT6A, winged helix 2, GST fusion (KAT6A, Homo sapiens, UniProt Q92794, residues 85-181)
Method: protein binding microarray
Form: double-stranded DNA, one strand shown
Sample: in vitro
Tested at: not given
Setting: 8-mer, flanks averaged, mean of 2 arrays, mostly near background
Reference: not given
Reading: higher = stronger binding
Residues (chain): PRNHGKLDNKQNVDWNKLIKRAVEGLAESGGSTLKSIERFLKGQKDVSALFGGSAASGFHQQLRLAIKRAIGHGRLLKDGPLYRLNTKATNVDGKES
For `AGAATAAA`, the E-score was -0.0733.
For `CCCTCGAG`, the E-score was -0.102.
With `ATAGCAAC` the E-score was 0.0832.
`CTCGGGGC` gave an E-score of 0.079.
With `CGTGTCGA` the E-score was -0.0486.
With `CAAGAAGG` the E-score was -0.123.
`TGCAACAA` gave an E-score of 0.0708.
The E-score of `AACTGCGA` is reported as 0.108.
For `CGTGGTTC`, the E-score was -0.0847.
`AATGCAAA` gave an E-score of 0.127.
With `GACGAATA` the E-score was 0.0929.
`AAATCGAG` has an E-score of 0.0573.
With `GGTCATAC` the E-score was -0.0861.
With `GGCCTACA` the E-score was -0.0186.
`CCAGAGCA` has an E-score of 0.223.
With `TATTGGCA` the E-score was 0.0267.
For `CAAGAGTC`, the E-score was -0.0527.
The E-score of `AAGATACC` is reported as 0.0441.

Study 3
Target: PABPC1L2, full length, GST fusion (mouse, UniProt A0ABA7IW68)
Method: RNAcompete
Form: RNA
Sample: in vitro
Tested at: 20 nM
Setting: 7-mer, probes averaged, single round
Reference: mean of 7-mers
Reading: higher = stronger binding
Construct (chain): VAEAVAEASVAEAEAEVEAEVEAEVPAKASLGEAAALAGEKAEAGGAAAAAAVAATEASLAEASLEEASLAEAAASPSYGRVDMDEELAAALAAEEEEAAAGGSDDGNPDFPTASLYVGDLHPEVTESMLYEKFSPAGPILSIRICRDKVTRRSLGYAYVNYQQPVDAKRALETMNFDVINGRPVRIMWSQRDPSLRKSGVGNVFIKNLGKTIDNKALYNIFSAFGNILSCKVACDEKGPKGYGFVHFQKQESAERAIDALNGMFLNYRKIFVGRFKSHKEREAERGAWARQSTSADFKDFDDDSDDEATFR
The 7-mer Z-score of `CUUAGCU` is reported as -0.302.
For `AACACAC`, the 7-mer Z-score was 0.575.
`UAAGCGG` gave a 7-mer Z-score of 0.0334.
`GCAGAGU` has a 7-mer Z-score of 0.0533.
`UGUCAAA` gave a 7-mer Z-score of 0.149.
`ACUAAGA` gave a 7-mer Z-score of 0.186.
`CACUAAU` gave a 7-mer Z-score of -0.219.
`AGGGACU` gave a 7-mer Z-score of 0.234.
`CUUACAU` has a 7-mer Z-score of -0.286.
With `UGAUGUG` the 7-mer Z-score was -0.0573.
For `UUACACC`, the 7-mer Z-score was -0.209.
`CAGCCCU` has a 7-mer Z-score of -0.324.
For `AACCGAG`, the 7-mer Z-score was 0.00254.
With `GCCAACA` the 7-mer Z-score was 0.00436.
`CAAGUUU` gave a 7-mer Z-score of -0.269.
`CUCUUUG` has a 7-mer Z-score of -0.458.
The 7-mer Z-score of `CGUGGAU` is reported as 0.269.
`CGUCGAG` gave a 7-mer Z-score of -0.258.
`CCUAAUA` gave a 7-mer Z-score of -0.3.
With `UCAACUC` the 7-mer Z-score was -0.235.
`CGACGAC` gave a 7-mer Z-score of -0.0301.
`AGACGAA` has a 7-mer Z-score of 0.113.

Study 4
Target: RNA binding protein fox-1 homolog 2, RRM domain, GST-SBP tag (RBFOX2, Homo sapiens, UniProt O43251-10, residues 100-194)
Method: RNA Bind-n-Seq
Form: RNA
Sample: in vitro
Tested at: 365 nM
Setting: natural RNA segment, single round, ends assumed
Reference: no-protein control
Reading: higher = stronger binding
Construct (chain): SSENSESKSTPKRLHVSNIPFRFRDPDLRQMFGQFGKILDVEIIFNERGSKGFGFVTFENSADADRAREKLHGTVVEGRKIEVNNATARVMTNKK
`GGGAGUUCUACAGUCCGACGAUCUCAGCCUCUUAGAGAGGAGCCCUUGUAUGGCCAGGUCACACGGCAUCCCAGUGGCCGGGGAGUCACCCCCUCACGCAGAGACCUUGCCUGUGCCUCAGAUGGCUUGCUGCUGGAAUUCUCGGGUGCCAA`: “RBNS enrichment (R)” 0.377.
`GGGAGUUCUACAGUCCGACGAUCAUUGCCCAGCUGCCCUUGACAGGAAGUAUGAGCAUCAUCUUCUUCCUGCCCCUGACCGUGACCCAGAACUUGACCAUGAUAGAAGAGAGCCUCACCUCUGAGUUCAUUCAUGGAAUUCUCGGGUGCCAA` — result for “RBNS enrichment (R)”: 2.16.
For `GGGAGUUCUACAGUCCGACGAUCCUACCCCAGAGAGCCUUGAAGUUCCUGAAGUCACAGAGGAUGUAGACCGUGCCACCACAUGCCAGGUUAUCAAGCACCAGCAGCUGAUGGAACAGGCUGUGGCCCCUGAGUGGAAUUCUCGGGUGCCAA`, “RBNS enrichment (R)” read 0.267.
`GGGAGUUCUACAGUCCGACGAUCGUGGACACCCCUCGCUCUGAUGCCAACUGCAGAUAAUACACACCUCCUGCAGCGUCCAGCCACGGCUCCAGGGCACUGCUCUCCUCCUUGCACCGGUGAAACUCAGGCCAUGGAAUUCUCGGGUGCCAA`: “RBNS enrichment (R)” 0.5.
Under “RBNS enrichment (R)”, `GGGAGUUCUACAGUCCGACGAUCCCUGGGGCGACAGGAGAACCGGUCCUCUCUCUGACGGGGUGGCAUUUGGCCUUGAACAAAACCAAGUCCACUGGGGACAGAGGCAGGGGCAAGUGGCUCUCCCCAUUACCUGGAAUUCUCGGGUGCCAA` is recorded as 0.332.
For `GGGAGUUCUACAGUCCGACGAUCUUUCCUGAAGUGUUUAUUUUCUCUCAUAUCCACCAAACGUGAAUCCUGUUCCUGAUGGCCCGUUAUUGGACACUGGUGAUGCUAUUAUCCUGUAUUAUUUAUUAAUAUCCUGGAAUUCUCGGGUGCCAA`, “RBNS enrichment (R)” read 0.554.
Under “RBNS enrichment (R)”, `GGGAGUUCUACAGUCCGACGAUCGGCCGAUGGGAGUCUCCCUCCGACUCCAGAUAUGAACAGGGCCCAGGCCUGGAGCGUUUGCUGUGCCAGGAGGCGGCAGCUCUUCUGGGCAGAGCCUGUCCCCGCCUUCCUGGAAUUCUCGGGUGCCAA` is recorded as 0.793.
`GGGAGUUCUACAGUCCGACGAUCCAGGAAAAGUGGGUUGUCUUUGCCCCUCAAAGUCCACCUACCUAGAAACCAAGCCCACGGUCUUGGCCGUGACCCUGAUAAUAAAUGGGCUCUCUCAGAGGCGCCAGCCCUGGAAUUCUCGGGUGCCAA`: “RBNS enrichment (R)” 0.347.
Under “RBNS enrichment (R)”, `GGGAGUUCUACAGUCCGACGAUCAGGCGGGGAGGUGUUCAAAGACAUCUCCCUCAGUGCGGAUUUAUAUAUAUAUUUUUCCUUCACUGUGUCAAGUGGAAACAAAAACAAAAUCUUUCAAAAAAAAAAUCGGGUGGAAUUCUCGGGUGCCAA` is recorded as 0.566.
For `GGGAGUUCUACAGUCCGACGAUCUUUGCACGAAAACAGAAAUUCCAUAUCAAUGUGCCUUGCCCUGGAUAGUGAUUAUUUGUGGAAUUGUUGCACAUGCUCCUCAAUUGAAGGGGUUUUUUCCCUACUCAAGCUGGAAUUCUCGGGUGCCAA`, “RBNS enrichment (R)” read 5.53.
For `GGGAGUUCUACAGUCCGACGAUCAACCUAGGGGGUUGAUACAAUGUUACUGUAAUUGUGUGGGUGGGUGUCAUCCUUUGUGACAUUGUUACCCUGAGGUAUACUCCCUGCAGUGAGCUGGUCUUCCUGAAGUGUGGAAUUCUCGGGUGCCAA`, “RBNS enrichment (R)” read 0.789.
`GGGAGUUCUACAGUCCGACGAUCGCCAAGAAGGCCACCAUGCUUUUACUGUCCAGACCAAAAUGUUGCUCUCAAUCCCCAACAUUUGAUAGUCUUAGCAUUUAAACAAAAUCUCCGAGUGAGGGAGGCCAGCCUGGAAUUCUCGGGUGCCAA` — result for “RBNS enrichment (R)”: 0.372.

Study 5
Target: Sal-like protein 4, full length isoform B (SALL4, Homo sapiens, UniProt Q9UJQ4-2, residues 1-616)
Method: universal PBM
Form: double-stranded DNA, one strand shown
Sample: in vitro
Tested at: not given
Setting: 8-mer, flanks averaged, mean of replicates
Reading: higher = stronger binding
With `AAGTTGCT` the E-score was 0.00263.
`GGACGCCA` has an E-score of -0.328.
`CATGTGTC` has an E-score of -0.088.
For `GATCATAA`, the E-score was 0.336.
`CTGAGGCC` gave an E-score of -0.289.
The E-score of `TACTGTGA` is reported as 0.0989.
With `TAGCAGCA` the E-score was -0.0808.
`CTCGGTAA` has an E-score of -0.0679.
`CAACCCCG` gave an E-score of -0.286.
`CTCGATTC` has an E-score of -0.0608.
The E-score of `AAACGCCA` is reported as -0.0669.
For `GGATCCCC`, the E-score was -0.38.
For `CGTCTAGC`, the E-score was -0.105.
`AATCCGCT` has an E-score of -0.0484.
With `AGTAATGA` the E-score was 0.269.
With `CCGAGGCC` the E-score was -0.377.
`GGACCCAC` has an E-score of -0.232.

Excerpt of the above (study 3):
`CGACGAC` gave a 7-mer Z-score of -0.0301.
The 7-mer Z-score of `CGUGGAU` is reported as 0.269.
For `AACCGAG`, the 7-mer Z-score was 0.00254.
`GCAGAGU` has a 7-mer Z-score of 0.0533.
With `GCCAACA` the 7-mer Z-score was 0.00436.
`CCUAAUA` gave a 7-mer Z-score of -0.3.
